Measurements collected from several papers.
Each numbered part is a random draw from the data of one study; scales do not carry over between parts. Substitutions count along the parent as printed.

Sample 1 — effect on: phage display binding; technique: phage display panning NGS; molecule type: peptide; baseline: OGT-panned over input library
Target: UDP-N-acetylglucosamine--peptide N-acetylglucosaminyltransferase 110 kDa subunit (OGT, Homo sapiens, UniProt O15294)
Construct (O15294 1-1046): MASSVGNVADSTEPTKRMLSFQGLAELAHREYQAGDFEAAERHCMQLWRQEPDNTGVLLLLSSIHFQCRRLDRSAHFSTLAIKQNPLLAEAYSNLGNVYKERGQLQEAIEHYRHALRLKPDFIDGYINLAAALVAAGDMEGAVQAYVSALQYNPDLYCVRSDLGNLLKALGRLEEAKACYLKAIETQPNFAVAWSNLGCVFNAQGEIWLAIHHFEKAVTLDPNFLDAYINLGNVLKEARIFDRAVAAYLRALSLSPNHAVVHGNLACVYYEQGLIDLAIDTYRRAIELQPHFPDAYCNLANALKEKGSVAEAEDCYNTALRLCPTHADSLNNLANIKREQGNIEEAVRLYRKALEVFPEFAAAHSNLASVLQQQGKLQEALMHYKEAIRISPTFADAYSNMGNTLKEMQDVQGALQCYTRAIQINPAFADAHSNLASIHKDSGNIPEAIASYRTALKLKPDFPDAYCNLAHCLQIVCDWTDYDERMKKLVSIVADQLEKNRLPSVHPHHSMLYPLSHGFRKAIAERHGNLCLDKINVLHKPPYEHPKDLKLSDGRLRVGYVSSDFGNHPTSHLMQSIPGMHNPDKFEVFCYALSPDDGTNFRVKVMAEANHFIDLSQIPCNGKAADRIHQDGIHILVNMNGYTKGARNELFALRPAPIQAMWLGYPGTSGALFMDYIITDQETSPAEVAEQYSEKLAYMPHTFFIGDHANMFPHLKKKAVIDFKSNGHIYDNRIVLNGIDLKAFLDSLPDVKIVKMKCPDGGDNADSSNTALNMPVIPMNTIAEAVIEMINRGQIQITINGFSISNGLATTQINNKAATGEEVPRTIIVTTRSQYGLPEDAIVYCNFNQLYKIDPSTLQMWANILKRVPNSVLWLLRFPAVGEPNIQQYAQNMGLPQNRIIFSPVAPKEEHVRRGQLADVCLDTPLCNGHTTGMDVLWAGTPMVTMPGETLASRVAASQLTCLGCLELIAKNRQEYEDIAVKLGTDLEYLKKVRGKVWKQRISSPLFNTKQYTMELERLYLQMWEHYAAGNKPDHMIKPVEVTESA
For `FVHDQHKQHYHIVAH`, “log2 fold enrichment” read 6.17.
`VEQSSPFAPQYQIQM`: “log2 fold enrichment” 4.34.
Under “log2 fold enrichment”, `HSDHSHQNHHPPHIR` is recorded as 3.09.
For `NFLPFYAIQTFNNAT`, “log2 fold enrichment” read 2.26.

Sample 2 — technique: protein-binding microarray; molecule type: double-stranded DNA, one strand shown; matrix: in vitro; tested at: 2540 nM top; setting: 60-bp whole probe; with: salmon DNA 0.4 mg/ml; baseline: random background probes; reading: higher = stronger binding; constant ends, left off below: GCCTAGCAC … GTCTTGATTCGCTTGACGCTGCTG
Target: Interferon regulatory factor 3, full length, phosphomimetic (IRF3, Homo sapiens, UniProt Q14653, residues 1-427, S386D/S396D/S398D/S402D/T404D/S405D)
Residues (chain): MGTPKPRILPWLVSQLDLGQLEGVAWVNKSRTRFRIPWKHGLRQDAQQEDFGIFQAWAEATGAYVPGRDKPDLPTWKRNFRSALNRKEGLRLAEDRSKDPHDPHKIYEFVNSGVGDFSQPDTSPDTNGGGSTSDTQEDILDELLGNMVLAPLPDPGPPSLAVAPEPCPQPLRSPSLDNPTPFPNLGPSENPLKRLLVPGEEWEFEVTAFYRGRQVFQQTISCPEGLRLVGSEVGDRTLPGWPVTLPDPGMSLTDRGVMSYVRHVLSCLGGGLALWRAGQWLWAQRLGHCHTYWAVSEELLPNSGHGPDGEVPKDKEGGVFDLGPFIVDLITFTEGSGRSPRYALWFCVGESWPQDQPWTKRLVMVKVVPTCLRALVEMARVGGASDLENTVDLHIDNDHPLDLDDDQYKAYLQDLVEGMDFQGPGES
`GACGGACTGCTACCGCTGACGTGCTAG`: “fitted relative affinity” -0.728 z-score.
`TCATTTTCATTTTCCAAACTGTGCTAG`: “fitted relative affinity” 5.71 z-score.
`TCAGCTCTGGCACCTCTAACTGTGCTA` — result for “fitted relative affinity”: -0.643 z-score.
`TTAGAAGTGAGTCTCGATTAGTGCTAG` — result for “fitted relative affinity”: -0.588 z-score.
For `TACGATTCCAGTTTCGAGACGTGCTAG`, “fitted relative affinity” read 3.01 z-score.
`GACGGTTTCTGTTTCGGGACGTGCTAG`: “fitted relative affinity” 7.57 z-score.
`TCACCAATCATTTTTGCACTGTGCTAG` — result for “fitted relative affinity”: 1.3 z-score.
`CACGATCTCAGTCTCGAGACGTGCTAG`: “fitted relative affinity” 0.654 z-score.

Sample 3 — technique: universal PBM; molecule type: double-stranded DNA, one strand shown; matrix: in vitro; tested at: 600 nM; reading: higher = stronger binding
Target: Sal-like protein 4, full length isoform A (SALL4, Homo sapiens, UniProt Q9UJQ4, residues 1-1053)
Sequence of UniProt Q9UJQ4 (whole entry, looked up): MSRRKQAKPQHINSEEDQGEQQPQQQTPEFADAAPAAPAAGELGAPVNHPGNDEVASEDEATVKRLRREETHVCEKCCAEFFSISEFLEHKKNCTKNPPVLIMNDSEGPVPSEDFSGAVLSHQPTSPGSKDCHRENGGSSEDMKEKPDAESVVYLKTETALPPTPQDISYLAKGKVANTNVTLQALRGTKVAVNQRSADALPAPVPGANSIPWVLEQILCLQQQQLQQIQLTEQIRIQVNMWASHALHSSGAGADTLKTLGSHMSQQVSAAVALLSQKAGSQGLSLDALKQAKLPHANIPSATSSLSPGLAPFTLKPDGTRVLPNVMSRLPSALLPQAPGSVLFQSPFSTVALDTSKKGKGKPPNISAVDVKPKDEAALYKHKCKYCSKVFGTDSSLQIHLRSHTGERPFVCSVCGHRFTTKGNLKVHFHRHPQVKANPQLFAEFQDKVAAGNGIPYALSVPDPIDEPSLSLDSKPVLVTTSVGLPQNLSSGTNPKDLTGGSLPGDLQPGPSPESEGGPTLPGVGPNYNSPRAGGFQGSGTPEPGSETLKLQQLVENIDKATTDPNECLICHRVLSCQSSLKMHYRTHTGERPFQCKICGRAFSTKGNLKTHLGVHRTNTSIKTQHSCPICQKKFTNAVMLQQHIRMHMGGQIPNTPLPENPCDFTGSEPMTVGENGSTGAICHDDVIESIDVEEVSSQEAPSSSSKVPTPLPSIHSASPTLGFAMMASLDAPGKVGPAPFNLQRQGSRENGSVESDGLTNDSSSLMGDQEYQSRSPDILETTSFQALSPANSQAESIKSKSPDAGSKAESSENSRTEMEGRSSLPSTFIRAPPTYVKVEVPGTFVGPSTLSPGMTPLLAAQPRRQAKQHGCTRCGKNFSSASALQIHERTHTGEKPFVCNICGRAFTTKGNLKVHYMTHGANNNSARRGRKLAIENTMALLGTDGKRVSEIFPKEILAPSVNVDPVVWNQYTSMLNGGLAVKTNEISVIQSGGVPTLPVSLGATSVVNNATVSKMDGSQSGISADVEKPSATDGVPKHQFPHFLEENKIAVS
Setting: 8-mer, flanks averaged, mean of replicates
For `ATGTGCTA`, the E-score was 0.15.
For `GACGATCC`, the E-score was -0.14.
For `ACAGTCAG`, the E-score was -0.0457.
The E-score of `ATCCGAAT` is reported as 0.138.
`AAAGACCT` has an E-score of 0.044.
With `CATTTTAC` the E-score was 0.301.
For `CACAGATG`, the E-score was 0.0446.
The E-score of `AACCCCCG` is reported as -0.271.

Sample 4 — technique: competition protein-binding microarray; molecule type: double-stranded DNA, one strand shown; matrix: in vitro; tested at: 2 µM; with: Cbf1 competitor, 0.05 µM; reading: higher = stronger binding; constant ends, left off below: … GTCTTGATTCGCTTGACGCTGCTG
Target: Phosphate system positive regulatory protein PHO4, full length, GST-tagged (PHO4, Saccharomyces cerevisiae, UniProt P07270, residues 1-312)
Setting: whole 60-bp probe, lowest competitor level
Construct (chain): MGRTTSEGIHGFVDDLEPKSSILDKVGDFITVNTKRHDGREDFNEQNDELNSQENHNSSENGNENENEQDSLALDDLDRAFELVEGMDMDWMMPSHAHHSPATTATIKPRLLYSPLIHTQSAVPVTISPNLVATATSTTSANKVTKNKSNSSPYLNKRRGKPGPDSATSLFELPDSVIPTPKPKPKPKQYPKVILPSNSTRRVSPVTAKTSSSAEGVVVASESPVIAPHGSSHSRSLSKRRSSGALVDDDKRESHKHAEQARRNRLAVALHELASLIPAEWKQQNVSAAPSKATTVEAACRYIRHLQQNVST
With `AAATTACTAAGTTTTCACGTGGCTTACCCCGTATGA` the fluorescence intensity was 12300 a.u.
`TGCGCAACAACTTAGCACGTGTTTTTATGTCTAGAA` has a fluorescence intensity of 22500 a.u.
For `CCCGCGGGTCGCTATCACGATTCAGCACCCTTTGGA`, the fluorescence intensity was 4600 a.u.
`GACAATTTGGATTTACACATGGTTGAGATCCTGCAG` gave a fluorescence intensity of 6400 a.u.
With `TAACCCACCTTGGGCCACGTGGAAACCAGGGGCCAG` the fluorescence intensity was 15900 a.u.
The fluorescence intensity of `TCGCCGATCTCCCCTCACATGTACACTTTTAATCAG` is reported as 7020 a.u.
With `CATACCCAACCTTGGTTCGTGGGTGAAGATATTTGT` the fluorescence intensity was 6730 a.u.
`CTTTCCCGATCTTGTCACCTTACTTTAGCACATTTG` gave a fluorescence intensity of 3920 a.u.

Sample 5 — target: tungstate, free oxyanion; technique: microfluidic competitive inhibition; matrix: in vitro, cell-free expressed; tested at: not given; reading: lower = stronger binding
Setting: derived from inhibition constants, unchanged parent 2230 nM
Parent: PafA, mature enzyme, eGFP fusion (Elizabethkingia meningoseptica, UniProt Q9KJX5); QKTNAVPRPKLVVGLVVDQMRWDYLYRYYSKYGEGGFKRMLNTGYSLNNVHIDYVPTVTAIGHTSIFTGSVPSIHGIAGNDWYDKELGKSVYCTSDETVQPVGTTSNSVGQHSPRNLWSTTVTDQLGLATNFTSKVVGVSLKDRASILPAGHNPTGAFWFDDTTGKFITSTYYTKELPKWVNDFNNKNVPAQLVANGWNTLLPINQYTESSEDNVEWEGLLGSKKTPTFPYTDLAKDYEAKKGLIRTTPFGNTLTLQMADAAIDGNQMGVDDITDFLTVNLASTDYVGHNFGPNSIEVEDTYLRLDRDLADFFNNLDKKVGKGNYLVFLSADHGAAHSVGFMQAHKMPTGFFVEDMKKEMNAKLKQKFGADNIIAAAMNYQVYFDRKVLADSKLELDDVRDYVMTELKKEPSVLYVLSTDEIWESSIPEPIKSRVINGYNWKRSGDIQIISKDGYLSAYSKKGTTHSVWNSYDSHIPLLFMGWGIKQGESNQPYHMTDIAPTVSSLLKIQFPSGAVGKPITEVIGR
For `D311V`, “oxyanion analog dissociation constant” read 2.26 µM.
`D391V`: “oxyanion analog dissociation constant” 2.31 µM.
`L177G` — result for “oxyanion analog dissociation constant”: 1.74 µM.
`Q381G` — result for “oxyanion analog dissociation constant”: 1.89 µM.
Under “oxyanion analog dissociation constant”, `S513V` is recorded as 938 nM.
Under “oxyanion analog dissociation constant”, `Y439V` is recorded as 2.1 µM.
Under “oxyanion analog dissociation constant”, `V102A` is recorded as 1.64 µM.
Under “oxyanion analog dissociation constant”, `T120V` is recorded as 1.24 µM.
Under “oxyanion analog dissociation constant”, `E354V` is recorded as 2.07 µM.
For `L309V`, “oxyanion analog dissociation constant” read 2.47 µM.
`T405V` — result for “oxyanion analog dissociation constant”: 2.22 µM.
`V279A` — result for “oxyanion analog dissociation constant”: 2 µM.
`S106V`: “oxyanion analog dissociation constant” 2.36 µM.
`S474G` — result for “oxyanion analog dissociation constant”: 2.18 µM.
For `H51V`, “oxyanion analog dissociation constant” read 2.06 µM.
`K442V`: “oxyanion analog dissociation constant” 2.09 µM.
For `G79V`, “oxyanion analog dissociation constant” read 681 nM.
Under “oxyanion analog dissociation constant”, `Y286G` is recorded as 1.3 µM.
Under “oxyanion analog dissociation constant”, `I263G` is recorded as 1.41 µM.
`T98V`: “oxyanion analog dissociation constant” 1.78 µM.
For `L479G`, “oxyanion analog dissociation constant” read 2.74 µM.
`D371V`: “oxyanion analog dissociation constant” 2.25 µM.
For `D446G`, “oxyanion analog dissociation constant” read 2.31 µM.
`V287A` — result for “oxyanion analog dissociation constant”: 2.17 µM.
For `V13A`, “oxyanion analog dissociation constant” read 2.12 µM.

Excerpt of the above (sample 4):
With `TAACCCACCTTGGGCCACGTGGAAACCAGGGGCCAG` the fluorescence intensity was 15900 a.u.
`CTTTCCCGATCTTGTCACCTTACTTTAGCACATTTG` gave a fluorescence intensity of 3920 a.u.
With `CATACCCAACCTTGGTTCGTGGGTGAAGATATTTGT` the fluorescence intensity was 6730 a.u.
`TGCGCAACAACTTAGCACGTGTTTTTATGTCTAGAA` has a fluorescence intensity of 22500 a.u.
For `CCCGCGGGTCGCTATCACGATTCAGCACCCTTTGGA`, the fluorescence intensity was 4600 a.u.
The fluorescence intensity of `TCGCCGATCTCCCCTCACATGTACACTTTTAATCAG` is reported as 7020 a.u.
`GACAATTTGGATTTACACATGGTTGAGATCCTGCAG` gave a fluorescence intensity of 6400 a.u.
With `AAATTACTAAGTTTTCACGTGGCTTACCCCGTATGA` the fluorescence intensity was 12300 a.u.
